# Assay results gathered from unrelated publications.
# Protocols differ between the studies behind these lines. Values joined by “and” are separate records of one study, mostly repeats; a detail may differ. ± gives the spread as reported.
# Organism: Escherichia coli
Compound,test,test system,conditions,scale,measurement,value
CC(CCCOC(=O)CCC[N+](C)(C)C)C1CCC2C3CCC4CC(OC(=O)CCC[N+](C)(C)C)CCC4(C)C3CC(OC(=O)CCC[N+](C)(C)C)C12C (centres unmarked),"microbial growth, disc diffusion",ATCC25922,"31.2 µg/disc, 24 h",,inhibition zone,8 mm
OC[C@H]1O[C@@H]2O[C@H]3[C@H](O)[C@@H](O)[C@@H](O[C@H]4[C@H](O)[C@@H](O)[C@@H](O[C@H]5[C@H](O)[C@@H](O)[C@@H](O[C@H]6[C@H](O)[C@@H](O)[C@@H](O[C@H]7[C@H](O)[C@@H](O)[C@@H](O[C@H]1[C@H](O)[C@H]2O)O[C@@H]7CO)O[C@@H]6CO)O[C@@H]5CO)O[C@@H]4CO)O[C@@H]3CO,"LuxR reporter bioluminescence, antagonist",DH5α sensor strain,"200 µM, together with: OHHL 200 nM",,inhibition,-1 ± 2%
CC[C@H](C)[C@H](NC(=O)[C@H](CC1CCCCC1)NC(=O)[C@H](Cc1ccccc1)NC(=O)[C@@H](N)CCCN)C(=O)N[C@H](Cc1ccccc1)C(=O)N[C@@H](Cc1cn(Cc2ccccc2)cn1)C(N)=O,bacterial growth,ATCC 35218,,,IC50,> 20 µg/mL
CO[C@@H]1[C@@H](OC)[C@H]2O[C@H]3[C@H](OC)[C@@H](OC)[C@@H](O[C@H]4[C@H](OC)[C@@H](OC)[C@@H](O[C@H]5[C@H](OC)[C@@H](OC)[C@@H](O[C@H]6[C@H](OC)[C@@H](OC)[C@@H](O[C@H]7[C@H](OC)[C@@H](OC)[C@@H](O[C@H]8[C@H](OC)[C@@H](OC)[C@@H](O[C@@H]1[C@@H](Cn1cc(CCCC(=O)N[C@H]9CCOC9=O)nn1)O2)O[C@@H]8Cn1cc(CCCC(=O)N[C@H]2CCOC2=O)nn1)O[C@@H]7Cn1cc(CCCC(=O)N[C@H]2CCOC2=O)nn1)O[C@@H]6Cn1cc(CCCC(=O)N[C@H]2CCOC2=O)nn1)O[C@@H]5Cn1cc(CCCC(=O)N[C@H]2CCOC2=O)nn1)O[C@@H]4Cn1cc(CCCC(=O)N[C@H]2CCOC2=O)nn1)O[C@@H]3Cn1cc(CCCC(=O)N[C@H]2CCOC2=O)nn1,"LuxR reporter, antagonist",DH5α sensor strain,"100 µM, together with: OHHL 200 nM",,inhibition,21 ± 1%
CC(CCCOC(=O)CCC[N+](C)(C)C)C1CCC2C3CCC4CC(OC(=O)CCC[N+](C)(C)C)CCC4(C)C3CCC12C (centres unmarked),"microbial growth, disc diffusion",ATCC25922,"31.2 µg/disc, 24 h",,inhibition zone,12 mm
[Cl-].[Cl][Ru-4]123([n+]4ccccc4-c4cccc([n+]41)-c1cccc[n+]12)[n+]1ccc(-c2ccccc2)c2ccc4c(-c5ccccc5)cc[n+]3c4c21,ICP-MS,,"20 µM, 24 h",,cellular uptake,11.7%
CC[C@H](C)[C@H](NC(=O)[C@H](CCCN)NC(=O)[C@H](CC(N)=O)NC(=O)[C@H](Cc1c[nH]c2ccccc12)NC(=O)[C@H](Cc1ccccc1)NC(=O)[C@H](CCCN)NC(=O)[C@H](CCCCNC(=N)N)NC(=O)[C@H](CC(C)C)NC(=O)[C@H](Cc1c[nH]c2ccccc12)NC(=O)[C@H](CCCN)NC(=O)[C@H](CCCCNC(=N)N)NC(=O)[C@H](CC(C)C)NC(=O)CNC(C)=O)C(=O)N[C@@H](CCCN)C(=O)N[C@@H](CCCCNC(=N)N)C(N)=O,,ATCC 25922,"concentration not given, together with: MgCl2 1 mM",baseline: no added salt,MIC fold change,1 fold
CC(C)C[C@H](NC(=O)[C@H](Cc1ccc(O)cc1)NC(=O)[C@@H]1CCCN1C(=O)[C@H](CCCNC(=N)N)NC(=O)[C@@H]1CCCN1C(=O)[C@H](CCCCN)NC(=O)[C@H](CC(=O)O)NC(=O)[C@@H]1CCCN1C(=O)[C@H](CCCNC(=N)N)NC(=O)C1(N)CCCCC1)C(=O)N1CCC[C@H]1C(=O)N[C@@H](CCCNC(=N)N)C(=O)N1CCC[C@H]1C(=O)N[C@@H](CCCNC(=N)N)C(=O)N1CCC[C@H]1C(=O)N1CCC[C@H]1C(=O)N[C@@H](CCCNC(=N)N)C(=O)N1CCC[C@H]1C(=O)N[C@H](C(=O)N[C@@H](CCCNC(=N)N)C(=O)N[C@@H](CSCc1ccccc1CSC[C@H](NC(=O)[C@H](CCCNC(=N)N)NC(=O)[C@@H](NC(=O)[C@@H]1CCCN1C(=O)[C@H](CCCNC(=N)N)NC(=O)[C@@H]1CCCN1C(=O)[C@@H]1CCCN1C(=O)[C@H](CCCNC(=N)N)NC(=O)[C@@H]1CCCN1C(=O)[C@H](CCCNC(=N)N)NC(=O)[C@@H]1CCCN1C(=O)[C@H](CC(C)C)NC(=O)[C@H](Cc1ccc(O)cc1)NC(=O)[C@@H]1CCCN1C(=O)[C@H](CCCNC(=N)N)NC(=O)[C@@H]1CCCN1C(=O)[C@H](CCCCN)NC(=O)[C@H](CC(=O)O)NC(=O)[C@@H]1CCCN1C(=O)[C@H](CCCNC(=N)N)NC(=O)C1(N)CCCCC1)C(C)C)C(=O)NN)C(=O)NN)C(C)C,"membrane disruption, propidium iodide uptake",25922,"90 min, 37 °C",,MDC,19.1 ± 0.2 µg/mL
O=C(CCCc1cn(C[C@H]2O[C@@H]3O[C@H]4[C@H](O)[C@@H](O)[C@@H](O[C@H]5[C@H](O)[C@@H](O)[C@@H](O[C@H]6[C@H](O)[C@@H](O)[C@@H](O[C@H]7[C@H](O)[C@@H](O)[C@@H](O[C@H]8[C@H](O)[C@@H](O)[C@@H](O[C@H]9[C@H](O)[C@@H](O)[C@@H](O[C@H]2[C@H](O)[C@H]3O)O[C@@H]9Cn2cc(CCCC(=O)N[C@H]3CCOC3=O)nn2)O[C@@H]8Cn2cc(CCCC(=O)N[C@H]3CCOC3=O)nn2)O[C@@H]7Cn2cc(CCCC(=O)N[C@H]3CCOC3=O)nn2)O[C@@H]6Cn2cc(CCCC(=O)N[C@H]3CCOC3=O)nn2)O[C@@H]5Cn2cc(CCCC(=O)N[C@H]3CCOC3=O)nn2)O[C@@H]4Cn2cc(CCCC(=O)N[C@H]3CCOC3=O)nn2)nn1)N[C@H]1CCOC1=O,"LuxR reporter, antagonist",DH5α sensor strain,"4 µM, together with: OHHL 200 nM",,inhibition,26 ± 10%
O=C(Oc1cccccc1=O)c1ccc([N+](=O)[O-])cc1,"microbial growth, broth dilution",ATCC35218,,,MIC80,> 100 µM
CCCC(=O)Oc1c(C)c(OC)c2c(c1C)OC(=O)[C@@H](CC)[C@]2(O)/C=C/c1ccccc1 (racemic),"microbial killing, broth dilution",ATCC25922,,,MBC,> 5000 µg/mL
OB(O)c1ccc(C(F)(F)F)s1,,,"100 µM, 10 h",baseline: untreated,growth,90.6% and 77.3% and 94.7% and 121% and 87%
COc1c(C)c(OS(=O)(=O)c2ccccc2)c(C)c(O)c1C(=O)/C=C/c1ccccc1,"microbial killing, broth dilution",ATCC25922,,,MBC,> 5000 µg/mL
O=C(CCCc1cn(C[C@H]2O[C@@H]3O[C@H]4[C@H](O)[C@@H](O)[C@@H](O[C@H]5[C@H](O)[C@@H](O)[C@@H](O[C@H]6[C@H](O)[C@@H](O)[C@@H](O[C@H]7[C@H](O)[C@@H](O)[C@@H](O[C@H]8[C@H](O)[C@@H](O)[C@@H](O[C@H]9[C@H](O)[C@@H](O)[C@@H](O[C@H]2[C@H](O)[C@H]3O)O[C@@H]9CO)O[C@@H]8CO)O[C@@H]7CO)O[C@@H]6CO)O[C@@H]5CO)O[C@@H]4CO)nn1)N[C@H]1CCOC1=O,"LuxR reporter, antagonist",DH5α sensor strain,"1 µM, together with: OHHL 200 nM",,inhibition,3 ± 1%
CCCCCC(=O)Oc1c(C)c(OC)c2c(c1C)OC(=O)[C@@H](CCCC)[C@]2(O)/C=C/c1ccccc1 (relative stereo),"microbial killing, broth dilution",ATCC25922,,,MBC,> 5000 µg/mL
O=C(Oc1cccccc1=O)c1cccc(Cl)c1,"microbial growth, broth dilution",ATCC35218,,,MIC80,> 100 µM
CO[C@@H]1[C@@H](OC)[C@H]2O[C@H]3[C@H](OC)[C@@H](OC)[C@@H](O[C@H]4[C@H](OC)[C@@H](OC)[C@@H](O[C@H]5[C@H](OC)[C@@H](OC)[C@@H](O[C@H]6[C@H](OC)[C@@H](OC)[C@@H](O[C@H]7[C@H](OC)[C@@H](OC)[C@@H](O[C@@H]1[C@@H](Cn1cc(CCCC(=O)N[C@H]8CCOC8=O)nn1)O2)O[C@@H]7Cn1cc(CCCC(=O)N[C@H]2CCOC2=O)nn1)O[C@@H]6Cn1cc(CCCC(=O)N[C@H]2CCOC2=O)nn1)O[C@@H]5Cn1cc(CCCC(=O)N[C@H]2CCOC2=O)nn1)O[C@@H]4Cn1cc(CCCC(=O)N[C@H]2CCOC2=O)nn1)O[C@@H]3Cn1cc(CCCC(=O)N[C@H]2CCOC2=O)nn1,"LuxR reporter, antagonist",DH5α sensor strain,"4 µM, together with: OHHL 200 nM",,inhibition,10 ± 2%
COc1cc2c(cc1OC)C1Cc3ccc(OC)c(OC)c3C[NH+]1CC2.[Cl][Fe-]([Cl])([Cl])[Cl] (centres unmarked),,,"24 h, 37 °C",,MBC,> 1600 µM
O=C(CCCc1cn(C[C@H]2O[C@@H]3O[C@H]4[C@H](O)[C@@H](O)[C@@H](O[C@H]5[C@H](O)[C@@H](O)[C@@H](O[C@H]6[C@H](O)[C@@H](O)[C@@H](O[C@H]7[C@H](O)[C@@H](O)[C@@H](O[C@H]8[C@H](O)[C@@H](O)[C@@H](O[C@H]2[C@H](O)[C@H]3O)O[C@@H]8Cn2cc(CCCC(=O)N[C@H]3CCOC3=O)nn2)O[C@@H]7Cn2cc(CCCC(=O)N[C@H]3CCOC3=O)nn2)O[C@@H]6Cn2cc(CCCC(=O)N[C@H]3CCOC3=O)nn2)O[C@@H]5Cn2cc(CCCC(=O)N[C@H]3CCOC3=O)nn2)O[C@@H]4Cn2cc(CCCC(=O)N[C@H]3CCOC3=O)nn2)nn1)N[C@H]1CCOC1=O,"LuxR reporter, antagonist",DH5α sensor strain,"200 µM, together with: OHHL 200 nM",,inhibition,32 ± 1%
N=C(N)NCCC[C@@H]1NC(=O)[C@H](CCCNC(=N)N)NC(=O)[C@@H](C(c2ccccc2)c2ccccc2)NC(=O)[C@H](Cc2c[nH]c3ccccc23)NC(=O)[C@@H](C(c2ccccc2)c2ccccc2)NC(=O)[C@@H](CCCNC(=N)N)NC(=O)[C@@H](CCCNC(=N)N)NC1=O,,ATCC BAA-2452,MIC,,time to complete killing,3 to 4 h

# Repeated from above:
Compound,test,test system,conditions,scale,measurement,value
[Cl-].[Cl][Ru-4]123([n+]4ccccc4-c4cccc([n+]41)-c1cccc[n+]12)[n+]1ccc(-c2ccccc2)c2ccc4c(-c5ccccc5)cc[n+]3c4c21,ICP-MS,,"20 µM, 24 h",,cellular uptake,11.7%
CC[C@H](C)[C@H](NC(=O)[C@H](CCCN)NC(=O)[C@H](CC(N)=O)NC(=O)[C@H](Cc1c[nH]c2ccccc12)NC(=O)[C@H](Cc1ccccc1)NC(=O)[C@H](CCCN)NC(=O)[C@H](CCCCNC(=N)N)NC(=O)[C@H](CC(C)C)NC(=O)[C@H](Cc1c[nH]c2ccccc12)NC(=O)[C@H](CCCN)NC(=O)[C@H](CCCCNC(=N)N)NC(=O)[C@H](CC(C)C)NC(=O)CNC(C)=O)C(=O)N[C@@H](CCCN)C(=O)N[C@@H](CCCCNC(=N)N)C(N)=O,,ATCC 25922,"concentration not given, together with: MgCl2 1 mM",baseline: no added salt,MIC fold change,1 fold
